Published values pooled from the literature.
Compare with care: the assays were run in different laboratories. Several values in a cell are separate wells, animals, samples, runs or records. ± marks the error that the study gave.

With `CCCCC[C@H]1CC[C@H](c2ccc(OCC)c(F)c2F)CC1` the fetal accumulation was 1.57 ± 1.11 ng/g (rat, fetus; 5000 ng/mL in perfusate, high dose, mixture of 21 LCMs).
`Cc1c(C(=O)O)ccc2c3n(nc12)[C@@H]1[C@H](C3)N(CC2CC2)[C@@]2(C(=O)Nc3cc(Cl)ccc32)[C@H]1c1cccc(Cl)c1F` — result for “adverse event incidence”: 52% (phase Ia trial, item: Fatigue; cancer patients; oral, dose not given).
With `CC[C@H](C)[C@H](NC(=O)[C@H](Cc1ccccc1)NC(=O)[C@H](CCC(=O)O)NC(=O)[C@H](CCCCNC(=O)COCCOCCNC(=O)COCCOCCNC(=O)CC[C@H](NC(=O)CCCCCCCCCCCCCCCCC(=O)O)C(=O)O)NC(=O)[C@H](C)NC(=O)[C@H](C)NC(=O)[C@H](CCC(N)=O)NC(=O)CNC(=O)[C@H](CCC(=O)O)NC(=O)[C@H](CC(C)C)NC(=O)[C@H](Cc1ccc(O)cc1)NC(=O)[C@H](CO)NC(=O)[C@H](CO)NC(=O)[C@@H](NC(=O)[C@H](CC(=O)O)NC(=O)[C@H](CO)NC(=O)[C@@H](NC(=O)[C@H](Cc1ccccc1)NC(=O)[C@@H](NC(=O)CNC(=O)[C@H](CCC(=O)O)NC(=O)C(C)(C)NC(=O)[C@@H](N)Cc1cnc[nH]1)[C@@H](C)O)[C@@H](C)O)C(C)C)C(=O)N[C@@H](C)C(=O)N[C@@H](Cc1c[nH]c2ccccc12)C(=O)N[C@@H](CC(C)C)C(=O)N[C@H](C(=O)N[C@@H](CCCNC(=N)N)C(=O)NCC(=O)N[C@@H](CCCNC(=N)N)C(=O)NCC(=O)O)C(C)C` the steady-state concentration was 170 ± 60 ng/mL (ELISA; diabetic Sprague Dawley rats, male, serum; subcutaneous, 20 µg daily, comparison to single hydrogel injection).
`C[C@H]1O[C@@H](O[C@H]2[C@@H](O)C[C@H](O[C@H]3[C@@H](O)C[C@H](O[C@H]4CC[C@@]5(C)[C@H](CC[C@@H]6[C@@H]5C[C@@H](O)[C@]5(C)[C@@H](C7=CC(=O)OC7)CC[C@]65O)C4)O[C@@H]3C)O[C@@H]2C)C[C@H](O)[C@@H]1O`: “subjects with adverse event” 0% (item: headache; healthy men; oral, dose not given, 8 days, treatment-emergent, crossover trial).
The brain concentration of `O=S(=O)(c1ccc(-c2ccc3nccc(Nc4ccncn4)c3c2)cc1)N1CCOCC1` is reported as 181 ng/g (female BALB/c mice, brain; intraperitoneal, 10 mg/kg, 0.25 h, mean).
For `O=C(O)CSc1nnc(Br)n1-c1ccc(C2CC2)c2ccccc12`, the body weight was 36 g and 32.2 g and 32 g and 27.6 g and 27.4 g and 32.4 g (KM mouse, chronic hyperuricaemia model; dose not given, day 12).
For `COc1nnc2ccc(N3CCC(c4ccc(OCCN5CCN(C)C(=O)[C@H]5C)cc4)CC3)nn12`, “median time to platelet recovery” read 6 weeks (human, blood; oral, 30 mg once daily).
For `CC(=O)N[C@@H](CS)C(=O)O`, brain level read “not detected” (Sprague-Dawley rat, brain; dose not given).
`O=C(Nc1nc2cccc(-c3ccc(CN4CCS(=O)(=O)CC4)cc3)n2n1)C1CC1`: “treatment-emergent adverse events” 0% (item: pharyngitis; human rheumatoid arthritis patients; oral, 30 mg once daily, 4 weeks, regardless of relatedness).
`COc1ccnc(C(=O)NC(CO)C(=O)O)c1O` (racemic): “share of total radioactive residue” 14 % TRR (laying hens, eggs; oral, 10.7 mg/kg dry feed, 7 d).
`CCN1CCN(Cc2ccc(Nc3ncc(F)c(-c4cc(F)c5nc6n(c5c4)[C@H](C)CCC6)n3)nc2)CC1` has a Tmax of 9.48 h (human, plasma; 400 mg single dose, median).
`Cl.[2H]C([2H])([2H])CC(=O)c1cnc(NC(=O)C2CC2)cc1Nc1cccc(-c2ncn(C([2H])([2H])[2H])n2)c1OC`: “terminal elimination rate constant” 2e-05 s⁻¹ (human, fasted, multiple dose; oral, 20 mg twice daily, tablet, day 14, geometric mean).
`COc1cc2nccc(Oc3ccc(NC(=O)c4cc5c(n(-c6ccccc6)c4=O)CCCC5=O)nc3)c2cc1OC`: “TEAEs, drug-related, patients with” 45% (human, relapsed/refractory AML; oral, dose not given, all dose groups combined).
`CC(C)=CCC/C(C)=C/CC/C(C)=C/CC[C@@](C)(O)CCC1=C(C)C(=O)C(C)=C(C)C1=O` has a median half-life of 12.3 h (healthy human, plasma; oral, dose not given, with: itraconazole).
`Cc1ccc2c(c1)nc(/C=C/c1cccc3cccnc13)n2-c1cccc(OCCCN2CCN(C)CC2)c1` gave a plasma concentration of 267 ± 63.4 nM (male Sprague-Dawley rat; oral, 10 mg/kg, 2 h).
For `CN1C[C@H](COc2nccc3c(NCc4ccco4)cc(Cl)nc23)OC1=O`, “LV dP/dt max” read 1280 mmHg/s (rabbit NZW female, isolated Langendorff heart; 3 µM, 15 min).
Under “trough plasma concentration”, `CC1(C)CC[C@]2(NC(=O)C(C)(F)F)CC[C@]3(C)[C@H](C(=O)C=C4[C@@]5(C)C=C(C#N)C(=O)C(C)(C)[C@@H]5CC[C@]43C)[C@@H]2C1` is recorded as 39.4 ng/mL (human, plasma; oral, 150 mg, day 24 predose, mean).
`Oc1ccc(/C=C/c2cc(O)cc(O)c2)cc1` has an alkaline phosphatase of 302 IU/L and 316 IU/L and 470 IU/L (rat, azoxymethane-injected, blood at sacrifice; 100 mg/kg).
`CNCc1ccc(-c2[nH]c3cc(F)cc4c3c2CCNC4=O)cc1` gave a neutropenia incidence of 0% (human patients; oral, 840 mg twice daily, all grades).
With `COc1ccc2c(=O)n(C)c(-c3ccccc3)nc2c1` the concentration was 1120 ng/mL (Sprague-Dawley rat, male, small intestine; oral, 30 mg/kg, 4 h).
`NC1(C(=O)N[C@@H](CCO)c2ccc(Cl)cc2)CCN(c2nc[nH]c3nccc2-3)CC1`: “incidence of Erythema” 6.7% (metastatic CRPC patients; dose not given, any grade, treatment-related, all doses, with: enzalutamide 160 mg daily).
For `Cc1ccc(CCC(=O)Nc2nnc(S(N)(=O)=O)s2)cc1`, the clearance was 77.6 mL/min/kg (BALB/c mice, male, plasma; oral, 20 mg/kg).
For `CC[C@H](C)[C@H](NC(C)=O)C(=O)N[C@H]1CSSC[C@@H](C(=O)N[C@H](C(N)=O)[C@@H](C)O)NC(=O)[C@H](CCCNC(=N)N)NC(=O)[C@H](Cc2c[nH]cn2)NC(=O)[C@H](Cc2cccc3ccccc23)NC(=O)CNC(=O)[C@H](Cc2c[nH]c3ccccc23)NC(=O)[C@H](CC(=O)O)NC(=O)[C@H](CCC(N)=O)NC(=O)[C@H](Cc2c[nH]c3ccccc23)NC(=O)[C@H](C(C)C)NC1=O`, the retention factor was 5.002 ± 0.006 (isocratic RP-HPLC, C18; 32% acetonitrile, phosphate pH 7.4, 1% TFA; 25 °C).
For `COc1cccc(OC)c1-c1cc(C(=O)NC2(C(=O)O)C3CC4CC(C3)CC2C4)nn1-c1ccc(C(=O)N(C)CCCN(C)CCCN(C)C(=O)CN2CCN(CC(=O)[O-])CCN(CC(=O)[O-])CCN(CC(=O)[O-])CC2)cc1C(C)C.[177Lu+3]` (stereo not shown), the tumour-to-kidney ratio was 17.1 (mouse, HT-29 xenograft; 24 h post injection, biodistribution; relative to: tumour over kidney uptake).
The unbound AUC(0-inf) of `NC[C@@]1(CC(=O)O)[C@@H]2CC[C@H]3C[C@@H]2[C@@H]1C3` is reported as 5990 ng·h/mL (human, severe renal impairment, plasma; dose not given, geometric mean).
`COc1c(N2C[C@@H]3CCCN[C@@H]3C2)c(F)cc2c(=O)c(C(=O)O)cn(C3CC3)c12`: “QTcI change from baseline” 6.6 ms (healthy volunteers; oral, 400 mg single dose, day 5, 3.00 h).
`CN(C(=O)n1cnc(-c2cccnc2)c1)C1CCCCC1` has a concentration of 86.5 ± 15.3 ng/g (Wistar rat, hippocampus; oral, 10 mg/kg of BIA 10-2474, 1 h, single dose).
For `CCCCCCCCCC(=O)[O-].C[N+](C)(C)CCO`, “critical aggregation concentration” read 27.31 ± 0.13 mmol/L (fluorescence probe; water; 37 °C).
For `COc1ccc2c(C(=O)c3cc(OC)c(OC)c(OC)c3)c(-c3ccc(OC)c(OC(C)(C)c4ccc([N+](=O)[O-])s4)c3)[nH]c2c1`, “non-enzymatic parent drug release” read 5.6% (phosphate buffer; concentration not given, 7.4 h, pH 7.4).
Under “serum LDL level”, `CCc1cc(C(=O)NC)c2nccc(N3CCc4c(cc(Cn5ccnc5)cc4-c4cn(C)nc4C(F)(F)F)C3=O)c2c1` is recorded as 0.7 ± 0.1 mmol/L (Sprague Dawley rats; oral, 100 mg/kg once daily, 7 days).
`C[C@@H](N)C1CCN(S(=O)(=O)c2cccc3cnccc23)CC1` gave a Vz/F of 5500 L (healthy volunteers, fasted, plasma; oral, 25 mg).
Under “treatment-related adverse events”, `C=CCN1CC(=O)N2[C@@H](Cc3ccc(O)cc3F)C(=O)N(Cc3cccc(N4CC(N5CCN(CC)CC5)C4)n3)C[C@@H]2N1C(=O)NCc1ccccc1` is recorded as 13.9% (item: AST increased; human advanced solid tumours; concentration not given, dose escalation any grade).
`Cn1cc(Nc2nccc(-c3ccc4c(c3)CN(C3COC3)CC[C@H]4NC(=O)c3cn(C(C)(C)C)nn3)n2)cn1` — result for “naive B cell count change”: 162% (human, whole blood; 50 mg twice daily, day 7; relative to: pre-dose baseline).
`O=C(N[C@H](Cc1c[nH]c2ccccc12)C(=O)Nc1ccncc1)c1ccc(N2CCN(c3ccc(F)c(F)c3)CC2)cc1F` has a concentration of 110 nM (Swiss Webster mouse, female, fat; oral, 50 mg/kg, 2 h, 20% HPβCD vehicle).
`C=CC(=O)NC1CCN(c2ncc3ncnc(Nc4ccc(Oc5ccc6c(c5)ncn6C)c(C)c4)c3n2)CC1` — result for “adverse events incidence”: 0% (item: skin disorders (SOC); human male; oral, dose not given, CTCAE on-treatment AEs).
For `Cc1cc(NC2CCN(C(=O)OC3CCN(C(=O)/C=C/CN(C)C)C3)CC2)n2ncc(C(C)C)c2n1` (stereo not shown), “patients with adverse event” read 0% (Phase I dose escalation CTCAE v4.0, item: peripheral oedema; patients with advanced solid tumours; dose not given, Total dosing grade 3 or higher).
For `CCn1cc(C(=O)N2CCOCC2)c(=O)c2cc(NC3Cc4ccccc4C3)cnc21`, the AUC(0-12h) was 28100 ng·h/mL (human overall, fed, plasma; oral, 900 mg twice daily, day 1, tablet, arithmetic mean).
For `Cc1cc(C)c(CNC(=O)c2cc(Cl)c3c(c2C)O[C@@](C)([C@H]2CC[C@H](N(C)C)CC2)O3)c(=O)[nH]1`, “serious acute respiratory failure” read 0% (human relapsed/refractory NHL; oral, 200 mg once daily, onset day 1 to 14).
`C=CC(=O)Nc1cc(Nc2nccc(-c3cn(C)c4ccccc34)n2)c(OC)cc1N(C)CCN(C)C` has a recovery of 101% (storage stability; human plasma; 2 h, -80 °C, MQC level).
`O=C(O)CCC(=O)O.[2H]C([2H])([2H])Oc1cc(C)c2[nH]ccc2c1CN1CC[C@@H](C2CC2)C[C@H]1c1ccc(C(=O)O)cc1`: “subjects with TEAE Acne” 0% (multiple ascending dose; healthy Chinese subjects; 125 mg twice daily).

For quick reference, copied from above:
With `CC[C@H](C)[C@H](NC(=O)[C@H](Cc1ccccc1)NC(=O)[C@H](CCC(=O)O)NC(=O)[C@H](CCCCNC(=O)COCCOCCNC(=O)COCCOCCNC(=O)CC[C@H](NC(=O)CCCCCCCCCCCCCCCCC(=O)O)C(=O)O)NC(=O)[C@H](C)NC(=O)[C@H](C)NC(=O)[C@H](CCC(N)=O)NC(=O)CNC(=O)[C@H](CCC(=O)O)NC(=O)[C@H](CC(C)C)NC(=O)[C@H](Cc1ccc(O)cc1)NC(=O)[C@H](CO)NC(=O)[C@H](CO)NC(=O)[C@@H](NC(=O)[C@H](CC(=O)O)NC(=O)[C@H](CO)NC(=O)[C@@H](NC(=O)[C@H](Cc1ccccc1)NC(=O)[C@@H](NC(=O)CNC(=O)[C@H](CCC(=O)O)NC(=O)C(C)(C)NC(=O)[C@@H](N)Cc1cnc[nH]1)[C@@H](C)O)[C@@H](C)O)C(C)C)C(=O)N[C@@H](C)C(=O)N[C@@H](Cc1c[nH]c2ccccc12)C(=O)N[C@@H](CC(C)C)C(=O)N[C@H](C(=O)N[C@@H](CCCNC(=N)N)C(=O)NCC(=O)N[C@@H](CCCNC(=N)N)C(=O)NCC(=O)O)C(C)C` the steady-state concentration was 170 ± 60 ng/mL (ELISA; diabetic Sprague Dawley rats, male, serum; subcutaneous, 20 µg daily, comparison to single hydrogel injection).
`C[C@H]1O[C@@H](O[C@H]2[C@@H](O)C[C@H](O[C@H]3[C@@H](O)C[C@H](O[C@H]4CC[C@@]5(C)[C@H](CC[C@@H]6[C@@H]5C[C@@H](O)[C@]5(C)[C@@H](C7=CC(=O)OC7)CC[C@]65O)C4)O[C@@H]3C)O[C@@H]2C)C[C@H](O)[C@@H]1O`: “subjects with adverse event” 0% (item: headache; healthy men; oral, dose not given, 8 days, treatment-emergent, crossover trial).
The brain concentration of `O=S(=O)(c1ccc(-c2ccc3nccc(Nc4ccncn4)c3c2)cc1)N1CCOCC1` is reported as 181 ng/g (female BALB/c mice, brain; intraperitoneal, 10 mg/kg, 0.25 h, mean).
For `O=C(O)CSc1nnc(Br)n1-c1ccc(C2CC2)c2ccccc12`, the body weight was 36 g and 32.2 g and 32 g and 27.6 g and 27.4 g and 32.4 g (KM mouse, chronic hyperuricaemia model; dose not given, day 12).
For `COc1nnc2ccc(N3CCC(c4ccc(OCCN5CCN(C)C(=O)[C@H]5C)cc4)CC3)nn12`, “median time to platelet recovery” read 6 weeks (human, blood; oral, 30 mg once daily).
